Results collected from several papers.
Protocols differ between the studies behind these lines. Numbers after ± are the reported error.

SMILES	cell line	test	setting	scale	endpoint	result
O=C(C[Se]C(=O)c1ccc2ccccc2n1)Nc1cccc(C(F)(F)F)c1	NCI60 leukaemia subpanel	NCI60 five-dose screen	–	–	CC50	10.5 µM
CC(C)[C@H](NC(=O)[C@H](CCCNC(=N)N)NC(=O)[C@@H]1CCCN1C(=O)[C@@H](NC(=O)[C@H](C)NC(=O)[C@H](Cc1ccc(O)cc1)NC(=O)[C@H](CCC(N)=O)NC(=O)[C@H](CCCCN)NC(=O)[C@H](CCCNC(=N)N)NC(=O)[C@@H]1CCCN1C(=O)[C@H](CCC(=O)O)NC(=O)[C@@H](NC(=O)[C@H](C)N)[C@@H](C)O)[C@@H](C)O)C(=O)N[C@@H](Cc1ccccc1)C(=O)N[C@@H](Cc1c[nH]c2ccccc12)C(=O)N[C@H](C(=O)N[C@@H](CC(=O)O)C(=O)N[C@@H](C)C(=O)N1CCC[C@H]1C(=O)NCC(=O)NCCOCCOCCOCCOCCOCCOCCOCCOCCOCCOCCOCCOCCC(=O)N[C@@H](CS)C(N)=O)[C@@H](C)O	PC-3 prostate cancer	phage binding	–	baseline: targeting over control phage	selectivity ratio	6.6 ± 0.87
CC(C)CC(O)(CC(C)C)c1cn(C(=O)N2CCCC2)nn1	mouse T cells	N-terminal labelling proteomics, item: Samsn1 N-terminal peptide	0.001 µM, 6 h	baseline: DMSO	SILAC ratio per peptide	0.56
O=C(C[Se]C(=O)c1ccccc1)Nc1cccc(C(F)(F)F)c1	NCI60 melanoma subpanel	total growth inhibition, inhibitor	five-dose	–	mean TGI	5.22 µM
CC[C@H](C)[C@H](NC(=O)[C@H](CC(C)C)NC(=O)[C@H](CC(=O)O)NC(=O)[C@H](CCCNC(=N)N)NC(=O)[C@H](Cc1c[nH]c2ccccc12)NC(=O)[C@@H](N)CC(C)C)C(=O)N[C@@H](CS)C(=O)N[C@@H](CC(C)C)C(=O)N[C@@H](CS)C(=O)N[C@@H](CCCNC(=N)N)C(=O)N[C@@H](CC(N)=O)C(=O)N[C@@H](CCCNC(=N)N)C(=O)N[C@@H](CCCNC(=N)N)C(=O)N[C@@H](CS)C(=O)N[C@@H](CC(N)=O)C(=O)N[C@@H](CCCNC(=N)N)C(=O)NCC(=O)N[C@@H](CCC(N)=O)C(=O)N[C@@H](CC(C)C)C(=O)N[C@@H](Cc1ccccc1)C(=O)N1CCC[C@H]1C(=O)NCC(=O)N[C@@H](Cc1c[nH]c2ccccc12)C(=O)N[C@@H](CS)C(=O)N1CCC[C@H]1C(=O)NCC(=O)N[C@@H](Cc1c[nH]c2ccccc12)C(=O)N[C@@H](Cc1c[nH]c2ccccc12)C(=O)N[C@@H](CC(C)C)C(=O)N[C@@H](CCCNC(=N)N)C(=O)N[C@@H](CS)C(=O)N[C@@H](CS)C(=O)N[C@@H](CCCNC(=N)N)C(=O)N[C@@H](CCCNC(=N)N)C(N)=O	RAW264.7	ELISA	200 µg/mL, 12 h, added: LPS 0.1 µg/mL	baseline: LPS alone	IL-6 and TNF-alpha levels	decreased
CSCC[C@H](NC(=O)[C@@H](NC(=O)[C@H](CCC(N)=O)NC(=O)[C@H](CO)NC(=O)[C@@H](N)C(C)C)[C@@H](C)O)C(=O)N[C@@H](CCCNC(=N)N)C(=O)N[C@@H](CCC(N)=O)C(=O)N[C@H](C(=O)N[C@@H](C)C(=O)N[C@H](C(=O)N1CCC[C@H]1C(=O)N[C@@H](CC(C)C)C(=O)N[C@@H](CC(C)C)C(=O)N[C@@H](Cc1c[nH]c2ccccc12)C(=O)N[C@@H](Cc1ccccc1)C(=O)N[C@@H](Cc1c[nH]c2ccccc12)C(=O)N[C@H](C(=O)NCC(=O)N[C@@H](CO)C(=O)N[C@@H](CC(C)C)C(=O)NCCOCCOCCOCCOCCOCCOCCOCCOCCOCCOCCOCCOCCC(=O)N[C@@H](CS)C(N)=O)[C@@H](C)O)C(C)C)[C@@H](C)O	H2122 lung adenocarcinoma	cell binding, phage binding, item: output/input phage	10 min, 37 °C	baseline: control phage	selectivity ratio	1.7 ± 0.39
Cc1cc(Oc2nc(N3CC[C@@H](c4ccncc4)C3)ncc2F)[nH]n1	Connective cancer cell lines	cell proliferation	–	–	IC50	52.5 µM
CC(C)(C)C(=O)OCOP(=O)(OCOC(=O)C(C)(C)C)C1CCCN(O)C1=O (stereo not drawn)	T47D	–	–	–	CC50	> 100 µM
NC(=O)N/N=C/c1ccc(OCc2ccccc2)cc1	IMR-32	–	500 µg/mL, 24 h	higher = more activity	catalase activity (OD450)	0.382 a.u.

Repeated from above:
SMILES	cell line	test	setting	scale	endpoint	result
CC(C)CC(O)(CC(C)C)c1cn(C(=O)N2CCCC2)nn1	mouse T cells	N-terminal labelling proteomics, item: Samsn1 N-terminal peptide	0.001 µM, 6 h	baseline: DMSO	SILAC ratio per peptide	0.56
